Results collected from several papers.
Each numbered part is a random draw from the data of one study; scales do not carry over between parts. Positions count from the first letter of the parent shown.

Study 1
Molecule: H1-4 (Homo sapiens, UniProt P10412)
Technique: cross-linking MS
Setting: hits only
partner | interaction screen
H2AC20 (Homo sapiens, UniProt Q16777) | cross-linked
HMGA1 (Homo sapiens, UniProt P17096) | cross-linked
H3-5 (Homo sapiens, UniProt Q6NXT2) | cross-linked

Study 2
Target: ABI1, truncated, D143A, DHFR fusion (Arabidopsis thaliana, UniProt P49597)
Technique: DHFR PCA, dose-response
Medium: yeast
Setting: Hill fit, not affinity, not high confidence
Added: (+)-ABA, dose series
Direction: lower = more sensitive
Starting sequence: PYL1, truncated, DHFR fusion (Arabidopsis thaliana, UniProt Q8VZS8); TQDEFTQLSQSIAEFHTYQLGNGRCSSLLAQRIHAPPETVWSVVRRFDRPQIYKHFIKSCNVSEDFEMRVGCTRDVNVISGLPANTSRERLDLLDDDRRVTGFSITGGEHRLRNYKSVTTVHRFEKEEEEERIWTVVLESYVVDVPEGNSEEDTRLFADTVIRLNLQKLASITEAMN
Variant | ABA EC50
I105F | 1520 µM
T154H | 16.7 µM
V145N | 55.9 µM
A84P | 0.24 µM
V43P | 465 µM
S117R | 102 µM
R74P | 11.5 µM
R74L | 81 µM

Study 3
Target: Hepatocyte nuclear factor 3-beta, forkhead domain (FOXA2, Homo sapiens, UniProt Q9Y261, residues 142-269)
Technique: protein-binding microarray
Molecule type: double-stranded DNA, one strand shown
Medium: in vitro
Concentration: not given
Setting: k-mer, scored over probes, only values ≥0.25
Direction: higher = stronger binding
Construct (chain): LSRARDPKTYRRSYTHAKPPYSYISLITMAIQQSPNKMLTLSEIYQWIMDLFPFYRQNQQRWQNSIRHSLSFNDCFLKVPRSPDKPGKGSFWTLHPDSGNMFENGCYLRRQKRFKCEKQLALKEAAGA
Oligonucleotide | E-score
ATATACAT | 0.363
ATGACAAC | 0.274
ATATATTG | 0.27
GATCAATA | 0.266
TATTACCA | 0.297
GTTACAAA | 0.285
GTGATTGA | 0.251
GCAATACA | 0.333

Single results of other studies
Compound | species | dose | setting | measurement | value
CC(C)n1cnc(-c2ccc(F)cc2)c1-c1ncc(C(=O)Nc2ccc(N3CCN(C)CC3)cc2)[nH]1 | human, idiopathic pulmonary fibrosis | 60 mg once daily | trial, treatment-emergent | patients with drug-induced liver injury | 0%
